{"data": "Results from different studies", "target": "Ephrin type-A receptor 2 (EPHA2, Homo sapiens, UniProt P29317)", "note": "Each line is one published result; not all experiments were run side by side. Values joined by “and” are separate records of one study, mostly repeats; a detail may differ."}
{"Compound": "O=C(Cc1ccc(OCc2ccccc2)cc1)NC1(C(=O)O)CCN(C(=O)c2ccc(-c3cccc(Cl)c3)cc2)CC1", "test": "enzyme activity, inhibitor", "conditions": "10 µM", "endpoint": "activity vs control", "result": "106%"}
{"Compound": "CC(=O)N1c2ccc(-c3ccc(CNC(=O)c4cn5cc(-c6cnc(N)nc6)nc(N6CCOCC6)c5n4)cc3)cc2CC[C@@H]1C", "test": "KINOMEscan", "conditions": "10 µM", "endpoint": "remaining binding", "result": "81%"}
{"Compound": "Nc1nc(Nc2ccccc2)sc1C(=O)c1ccccc1", "test": "enzyme activity, inhibitor", "conditions": "10 µM", "endpoint": "remaining activity", "result": "77%"}
{"Compound": "COc1c(OCCCN2CCOCC2)ccc2c1N=C(NC(=O)c1cnc(N)nc1)N1CCN=C21", "test": "kinase activity, inhibitor", "conditions": "1 µM", "scale": "baseline: untreated control", "endpoint": "remaining activity", "result": "102%"}
{"Compound": "CNS(=O)(=O)Nc1nccc(Cc2c(C)c3ccc(Oc4ncccc4F)cc3oc2=O)c1F", "test": "cell-free assay, competition with immobilised ligand", "conditions": "10 µM", "endpoint": "remaining binding", "result": "78%"}
{"Compound": "C=CC(=O)N1CCCC(n2c(=O)c3ncccc3n(Cc3ccc(Oc4ccccc4)cc3)c2=O)C1 (centres unmarked)", "test": "cell-free assay, competition with immobilised ligand", "conditions": "1 µM", "endpoint": "remaining binding", "result": "100%"}
{"Compound": "COc1c(Cl)cccc1Nc1c(-c2ccncc2C#C[C@@]2(C)CCCN2C(=O)/C=C/CN(C)C)[nH]c2c1C(=O)NCC2", "test": "cell-free assay, competition with immobilised ligand", "conditions": "3 µM", "endpoint": "remaining binding", "result": "100%"}
{"Compound": "Cc1cccc(-c2ccc3nc(NC(=O)C4CCOCC4)nn3c2)c1", "test": "enzyme activity, Dundee kinase panel", "conditions": "10 µM", "endpoint": "remaining activity", "result": "93%"}
{"Compound": "C[C@H]1CN(C(=O)c2cn(-c3ccnc(N)n3)c3cc(C#CC4(O)CCCCC4)ccc23)CCN1", "test": "enzyme activity, inhibitor, FRET", "conditions": "1 µM", "endpoint": "inhibition", "result": "14%"}
{"Compound": "COCC12C(=O)NC3C4(C(OC)CC1O)C1CC5(O)C(OC)C(O)C(OC(C)=O)(C1C5OC(=O)c1ccccc1)C3(O)C(OC)C24 (centres unmarked)", "test": "kinase activity, inhibitor, ProQinase kinase profiling", "conditions": "25 µM", "scale": "baseline: control", "endpoint": "remaining activity", "result": "116% and 106%"}
{"Compound": "Cc1ccc(-c2c(/C=C(\\C#N)C(=O)NC(C)C)n(CCCO)c3ncnc(N)c23)cc1", "test": "cell-free assay, competition with immobilised ligand", "conditions": "1 µM", "endpoint": "remaining binding", "result": "100%"}
{"Compound": "COc1ccc(NC(=O)Nc2ccc3c(c2)C(=O)N(C(C)CO)CC(C)C(CN(C)Cc2ccc4c(c2)OCO4)O3)cc1 (centres unmarked)", "test": "kinase activity, KinaseProfiler", "conditions": "0.03 µM, species human", "scale": "baseline: control", "endpoint": "remaining activity", "result": "90%"}
{"Compound": "C=C1CCCCCCCCCC(CO)C1=O (centres unmarked)", "test": "cell-free assay", "conditions": "10 µM", "endpoint": "remaining signal", "result": "100%"}
{"Compound": "CNC1C[S+]2CC[S+]3CC[S+](C1)[Ru-4]321([N]=C=S)[n]2c3ccc(OC)cc3c3c4c(c5cc(F)c[n+]1c5c32)C(=O)NC4=O (centres unmarked)", "test": "KinomeScan", "conditions": "0.1 µM", "scale": "baseline: untreated", "endpoint": "remaining binding", "result": "92%"}
{"Compound": "COc1cc(Nc2nccc(-c3cnn4nc(OC)ccc34)n2)cc(C(F)(F)F)c1", "test": "binding, competition with immobilised ligand", "conditions": "1 µM", "endpoint": "remaining binding", "result": "94%"}
{"Compound": "C=CC(=O)Nc1cccc(-c2cnc3[nH]cc(C(=O)NC(C)(C)C)c3n2)c1", "test": "enzyme activity, inhibitor", "conditions": "0.1 µM", "endpoint": "inhibition", "result": "-3%"}
{"Compound": "NC(=O)C[C@H]1CCc2sc3ncnc(O[C@H]4CC[C@H](N5CCOCC5)CC4)c3c21", "test": "enzyme activity, inhibitor", "conditions": "10 µM", "endpoint": "inhibition", "result": "13%"}
{"Compound": "c1ccc2c(Nc3cc(C4CCC4)[nH]n3)nc(Nc3ccc4nc[nH]c4c3)nc2c1", "test": "enzyme activity, inhibitor", "conditions": "0.25 µM", "endpoint": "remaining activity", "result": "22%"}
{"Compound": "Cc1cnc2nc1Nc1cccc(c1)COC/C=C/COCc1cc(ccc1OCCN1CCOCC1)N2", "test": "binding", "conditions": "0.1 µM", "endpoint": "remaining binding", "result": "100%"}
{"Compound": "Cc1ccc(C)c(-c2ccc3nc(NC(=O)C4CCCCC4)nn3c2)c1", "test": "enzyme activity, Dundee kinase panel", "conditions": "10 µM", "endpoint": "remaining activity", "result": "84%"}
{"Compound": "COc1cc(OC)c(F)c(/C=C/c2cnc3ccn(S(=O)(=O)c4cn(CCF)cn4)c3n2)c1F", "conditions": "100 nM", "endpoint": "inhibition", "result": "0%"}
{"Compound": "Cc1cccc(O[C@H]2CCC[C@@H](C(C)CNCc3ccncc3)C2)c1 (relative stereo)", "test": "cell-free assay", "conditions": "1 µM", "endpoint": "inhibition", "result": "-1%"}
{"Compound": "CN1CCN(Cc2ccc(NC(=O)c3cccc(C#Cc4cnc(N)c5ncccc45)c3)cc2C(F)(F)F)CC1", "test": "cell-free assay, competition with immobilised ligand", "conditions": "50 nM", "endpoint": "remaining binding", "result": "19%"}
{"note": "For quick reference, copied from above:"}
{"Compound": "COc1c(OCCCN2CCOCC2)ccc2c1N=C(NC(=O)c1cnc(N)nc1)N1CCN=C21", "test": "kinase activity, inhibitor", "conditions": "1 µM", "scale": "baseline: untreated control", "endpoint": "remaining activity", "result": "102%"}
{"Compound": "Cc1ccc(C)c(-c2ccc3nc(NC(=O)C4CCCCC4)nn3c2)c1", "test": "enzyme activity, Dundee kinase panel", "conditions": "10 µM", "endpoint": "remaining activity", "result": "84%"}
{"Compound": "CNC1C[S+]2CC[S+]3CC[S+](C1)[Ru-4]321([N]=C=S)[n]2c3ccc(OC)cc3c3c4c(c5cc(F)c[n+]1c5c32)C(=O)NC4=O (centres unmarked)", "test": "KinomeScan", "conditions": "0.1 µM", "scale": "baseline: untreated", "endpoint": "remaining binding", "result": "92%"}
{"Compound": "NC(=O)C[C@H]1CCc2sc3ncnc(O[C@H]4CC[C@H](N5CCOCC5)CC4)c3c21", "test": "enzyme activity, inhibitor", "conditions": "10 µM", "endpoint": "inhibition", "result": "13%"}
